# Published values gathered from unrelated publications.
# Every numbered part comes from another study and shows a few of its results, in no order.

# Sample 1
# Target: Sal-like protein 4, full length isoform A (SALL4, Homo sapiens, UniProt Q9UJQ4, residues 1-1053)
# Sequence of UniProt Q9UJQ4 (whole entry, looked up): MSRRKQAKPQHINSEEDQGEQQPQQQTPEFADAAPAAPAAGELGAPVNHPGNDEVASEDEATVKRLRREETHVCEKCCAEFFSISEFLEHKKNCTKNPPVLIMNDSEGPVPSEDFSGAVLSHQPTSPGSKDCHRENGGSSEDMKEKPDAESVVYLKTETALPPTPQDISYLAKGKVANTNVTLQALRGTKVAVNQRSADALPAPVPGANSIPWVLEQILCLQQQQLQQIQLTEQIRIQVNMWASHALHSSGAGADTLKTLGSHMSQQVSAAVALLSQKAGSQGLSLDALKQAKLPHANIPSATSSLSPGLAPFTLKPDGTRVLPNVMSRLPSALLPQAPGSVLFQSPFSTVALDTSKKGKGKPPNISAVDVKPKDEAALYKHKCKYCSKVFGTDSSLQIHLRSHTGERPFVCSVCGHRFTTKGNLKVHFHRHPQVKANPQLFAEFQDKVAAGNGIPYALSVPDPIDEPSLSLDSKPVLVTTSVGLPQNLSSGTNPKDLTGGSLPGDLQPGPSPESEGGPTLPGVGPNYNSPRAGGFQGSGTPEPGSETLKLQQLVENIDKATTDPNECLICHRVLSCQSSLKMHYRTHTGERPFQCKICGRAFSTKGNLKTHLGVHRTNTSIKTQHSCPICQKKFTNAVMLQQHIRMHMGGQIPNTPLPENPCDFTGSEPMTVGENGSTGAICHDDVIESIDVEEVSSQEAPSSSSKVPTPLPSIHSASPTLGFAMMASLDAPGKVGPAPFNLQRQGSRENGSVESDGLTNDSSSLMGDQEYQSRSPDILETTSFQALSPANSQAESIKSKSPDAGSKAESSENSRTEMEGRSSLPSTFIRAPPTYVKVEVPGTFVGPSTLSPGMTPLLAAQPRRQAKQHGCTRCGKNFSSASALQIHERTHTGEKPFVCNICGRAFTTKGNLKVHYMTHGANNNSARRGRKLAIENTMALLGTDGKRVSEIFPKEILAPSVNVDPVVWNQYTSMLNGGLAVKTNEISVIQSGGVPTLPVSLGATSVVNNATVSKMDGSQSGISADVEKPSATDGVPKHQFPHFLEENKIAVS
# Method: universal PBM
# Form: double-stranded DNA, one strand shown
# Sample: in vitro
# Tested at: 600 nM
# Setting: 8-mer, flanks averaged, mean of replicates
# Reading: higher = stronger binding
Oligonucleotide,E-score
CCGTAGAG,-0.206
AGAACACT,0.0202
GCGATAGC,-0.0273
CAATGAGA,0.108
CCGTCATC,-0.171
AACAGAAC,0.0946
TACTTTGA,0.15
CTGCCTGA,0.0387
CTTCGGGA,-0.0735

# Sample 2
# Target: Interferon regulatory factor 5, full length, phosphomimetic (IRF5, Homo sapiens, UniProt Q13568-2, residues 1-514, S451D/S453D/S456D/S462D)
# Method: protein-binding microarray
# Form: double-stranded DNA, one strand shown
# Sample: in vitro
# Tested at: 940 nM top
# Setting: 60-bp whole probe
# With: salmon DNA 0.4 mg/ml
# Relative to: random background probes
# Reading: higher = stronger binding
# Constant ends, left off below: GCCTAGCAC … GTCTTGATTCGCTTGACGCTGCTG
Oligonucleotide,fitted relative affinity [z-score]
CTCCCCTTGCTTTCCAATTCGTGCTAG,0.504
TTACGTATCCTACTGCTTTAGTGCTAG,0.391
TCAACTCTGTGCTTTCCTACTGTGCTA,0.601
GAAGATTTCAGTTTCGAGACGTGCTAG,4.24
TTAGGTTTCCTACTCCTTTAGTGCTAG,1.13
GACGGTCTCGGTATCGGGTCGTGCTAG,6.62
GACGAACTGGGGGATCGAGACGTGCTA,0.892
GACTGTCTCGGTTTCGGGACGTGCTAG,6.56
GACGGTATCCGGACTGGGGACGTGCTA,-0.191
GACGGACTGGGTTTCTGGACGTGCTAG,0.227
GACGGTATCGGGTTTAGGGACGTGCTA,4.31

# Sample 3
# Target: Histone acetyltransferase KAT6A, both winged helices, GST fusion (KAT6A, Homo sapiens, UniProt Q92794, residues 1-181)
# Method: protein binding microarray
# Form: double-stranded DNA, one strand shown
# Sample: in vitro
# Tested at: not given
# Setting: 8-mer, flanks averaged, mean of 2 arrays, mostly near background
# Relative to: not given
# Reading: higher = stronger binding
# Target sequence (chain): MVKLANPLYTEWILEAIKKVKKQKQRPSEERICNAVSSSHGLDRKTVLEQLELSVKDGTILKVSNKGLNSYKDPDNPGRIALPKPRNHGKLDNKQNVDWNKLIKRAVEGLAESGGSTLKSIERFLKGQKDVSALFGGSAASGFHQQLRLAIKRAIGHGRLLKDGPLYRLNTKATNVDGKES
Oligonucleotide,E-score
ATGTGTTC,-0.0173
ATTGGTGC,-0.0168
CTTGCGAC,0.018
AAGTCCAC,-0.192
CTACCCCC,-0.235
GACATGAC,0.0308
TTAGCAAA,-0.0845
CGCTCCTC,0.0424

# Single results of other studies
Substance,target,test,test system,setting,how to read,measurement,value
"PhoQ, residues 284 288 289 292 302 303 TSTLRA","PhoP, residues 12 14 15 18 19 TQAIL (Escherichia coli, UniProt P23836)","Sort-seq, item: YFP reporter",E. coli,"PhoQ-PhoP variant library, with: 10 µM Mg2+","relative to: high Mg2+ state, higher = stronger signaling",fold induction,16.3

# Some of these lines once more (sample 2):
Oligonucleotide,fitted relative affinity [z-score]
GACGGTCTCGGTATCGGGTCGTGCTAG,6.62
GACTGTCTCGGTTTCGGGACGTGCTAG,6.56
GACGGTATCCGGACTGGGGACGTGCTA,-0.191
